# Measurements pooled from the literature.
# Each numbered part is a random draw from the data of one study; scales do not carry over between parts. Changes are numbered by the printed parent chain.

# Block 1
# Target: Sal-like protein 4, full length isoform A (SALL4, Homo sapiens, UniProt Q9UJQ4, residues 1-1053)
# Sequence of UniProt Q9UJQ4 (whole entry, looked up): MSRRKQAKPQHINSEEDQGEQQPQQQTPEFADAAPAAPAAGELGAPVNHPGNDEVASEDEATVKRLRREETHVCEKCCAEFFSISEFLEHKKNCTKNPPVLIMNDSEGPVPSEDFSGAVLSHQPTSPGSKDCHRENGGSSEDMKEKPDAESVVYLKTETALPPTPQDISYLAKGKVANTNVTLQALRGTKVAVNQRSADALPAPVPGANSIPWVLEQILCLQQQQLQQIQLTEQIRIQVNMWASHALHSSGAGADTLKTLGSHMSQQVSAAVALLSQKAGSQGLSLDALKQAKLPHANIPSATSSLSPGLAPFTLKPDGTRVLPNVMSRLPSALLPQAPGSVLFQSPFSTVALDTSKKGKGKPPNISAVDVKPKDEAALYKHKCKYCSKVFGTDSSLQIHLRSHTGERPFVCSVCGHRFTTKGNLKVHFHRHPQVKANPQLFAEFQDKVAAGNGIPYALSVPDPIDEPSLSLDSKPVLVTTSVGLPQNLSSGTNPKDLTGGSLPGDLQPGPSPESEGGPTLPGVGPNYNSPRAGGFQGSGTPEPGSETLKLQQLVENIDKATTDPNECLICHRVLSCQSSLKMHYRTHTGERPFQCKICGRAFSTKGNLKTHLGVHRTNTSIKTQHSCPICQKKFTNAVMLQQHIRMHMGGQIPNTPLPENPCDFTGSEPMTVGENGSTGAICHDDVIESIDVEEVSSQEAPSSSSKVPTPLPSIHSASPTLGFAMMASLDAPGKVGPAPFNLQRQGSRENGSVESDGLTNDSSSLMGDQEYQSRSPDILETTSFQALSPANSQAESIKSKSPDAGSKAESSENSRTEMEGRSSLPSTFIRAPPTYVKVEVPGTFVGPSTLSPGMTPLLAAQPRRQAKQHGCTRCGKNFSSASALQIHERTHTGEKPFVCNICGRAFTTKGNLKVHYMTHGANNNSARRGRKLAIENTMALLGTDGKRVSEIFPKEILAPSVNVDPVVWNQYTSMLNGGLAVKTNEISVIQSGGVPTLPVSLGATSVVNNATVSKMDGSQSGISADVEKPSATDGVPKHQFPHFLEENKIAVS
# Method: universal PBM
# Molecule type: double-stranded DNA, one strand shown
# Medium: in vitro
# Tested at: 600 nM
# Setting: 8-mer, flanks averaged, mean of replicates
# Direction: higher = stronger binding
Sequence,E-score
GCGCAAAA,0.212
AAAAATGT,0.321
ATTGATCA,0.217
ACATGCCG,-0.0196
CAGAGAAG,0.0106
AAGATTCA,0.162
ACTCACAC,-0.0908
CTCGGTTC,-0.193
AATCCGCC,-0.197
AAGACCAG,-0.198
CTCCCGTC,-0.182
AACGTGGT,-0.0602
TCCGTCCA,-0.0619
CATGATAG,0.212
ACTGCTGA,-0.111
CCGCATAA,0.221
AGGGCCTC,-0.313
ATCTCCCG,-0.165
CTTTCCCA,-0.0812
CTGATTGC,-0.0284
ACGTGTGC,-0.206
CGCACACA,-0.0346
GGCCGATA,-0.0526
AACCGCAG,-0.283
GGCTTAAC,-0.0586

# Block 2
# Target: RNA binding protein fox-1 homolog 2, RRM domain, GST-SBP tag (RBFOX2, Homo sapiens, UniProt O43251-10, residues 100-194)
# Method: RNA Bind-n-Seq
# Molecule type: RNA
# Medium: in vitro
# Tested at: 365 nM
# Setting: natural RNA segment, single round, ends assumed
# Baseline: no-protein control
# Direction: higher = stronger binding
# Shared flanks, not repeated: GGGAGUUCUACAGUCCGACGAUC … UGGAAUUCUCGGGUGCCAA
# Construct (chain): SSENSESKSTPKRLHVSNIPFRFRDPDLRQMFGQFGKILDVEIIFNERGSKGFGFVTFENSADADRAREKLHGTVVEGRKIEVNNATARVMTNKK
Sequence,RBNS enrichment (R)
UUGAUGGCUGCGAAGACCUACCCUCCGUUUUUCUACUAGAUAGGAGGAUGGUAGAAGUUUGGCUGCUGUCAUAACAUCCAGAGCUUUGUCGUAUUUGGCACACAGCAGAG,0.191
UUAUGGGUACAUUCAAGACAAGAGUGUUCCAUUGACUGCAGCUAUCCAAGGACCGCCUGUUCAUAAGCUAUGCUCCAGAGGCUGCCGAUUCACUCGUGUGCACGGAGGGG,6.39
GCUAAUUGUACAUAUCAAUAUACAUUUAAAAUCUGGUAACACUGGUUAAAUAGCCCUUGAUGACUUUUCAUGUGGCAUGAGAGGGAUAUGCUUAUAAAGCUUAAUUCUGA,0.492
ACUUAUACUUAUUCUAUAAGGCCAAAGCCUUAUCUAGAAAGAUCAUGAAGAGUUUGGAUAUUUUUAAAACUAUACUCGAAUUUUCAUUUUUUCCUGUCCUGUAAAGAGAG,0.403
UCCUCUGGACCCCCAGGAGGCUGGUGCCAGGGAGACAGGCCCAACCCACCCCCAUUUGCACUGAGAAGAGAAGUUUUGGAGCGUUGCCUCCUAGAAUAAAGAUACAGAGA,0.407
AGAACUGCACCGCUGUCUUGUGAGCAUGGCGUGAACAGGCUGUUUUGCUCCAGCCACUUUUCUUGUACAACUACGGGGAUGGACUAGAUGUCCUCUGGUCUUUUCCAUCU,2.66
UCAACUAUUAGCAAAUUCCAUUUGGUGGCUUAGCAUUGGAAAGAACAGAUAAAGUAGCUGAUGCCUAGAAGAUCCUCUGCUUUUUCCGAUCCAGUGGUAGCCUUUGAUAC,0.585
CUUUGGUUUUCUGUGGCAGCGUCUCCCUUCUCAUUGUUUCUCUGUGUUUUAGUGGGGAUAGUACCAUAUGUGAUAUAACCUAGAAGCACUUGUCUCUGCUCUUAUGAAAC,0.368
AAUUAAUUCAGUGAAGGAUGAUUUUGCUCCUAGUUUUGGAGUUUGAAUUUCUGCCAGGAUUGAAUUAUUUUGAAAUCUCCUGUCUUUUUAAACUUUUUCAAAAUAGGUCU,0.662
CAGGUAUCAACUAGGGGAGGAGAGAGGGUCUCCAGUGUUCCCCCCAUAGAGACCAGGAGGGAGAGCCUCUGUUUUGUAAACUAAGGAUAACCGAGUUUGCUAAAUUGAGA,0.403
AAUUCCUAUAUUUUCAGUGGAUUCAAACUCUUUCUGAGGUUUUAAUGCGUGAAAGGAGCAGAGAAAUUAGGAAUCAGGGAAAAUUCAGUUAAAAGACUAGCAUCAGUAGG,1.14
CCCACUCCGUACUGUAUUUUGCCAUUCUGCCGUAGCUAGAUGUUCUGUGGGGUUUGUUAACAUGGAACUACUCAGCUUUCUUUCAGUCAACCCAUAAGCAAAUCAGAUAA,1.4

# Block 3
# Target: CCND2, cyclin fold, Cln2 fusion (human)
# Method: yeast growth competition, sequencing
# Medium: yeast
# Setting: weak parent motif
# Baseline: not given
# Direction: higher = stronger binding
# Parent: RP1L1 docking peptide (human); TLGLGPLSFTLED; partner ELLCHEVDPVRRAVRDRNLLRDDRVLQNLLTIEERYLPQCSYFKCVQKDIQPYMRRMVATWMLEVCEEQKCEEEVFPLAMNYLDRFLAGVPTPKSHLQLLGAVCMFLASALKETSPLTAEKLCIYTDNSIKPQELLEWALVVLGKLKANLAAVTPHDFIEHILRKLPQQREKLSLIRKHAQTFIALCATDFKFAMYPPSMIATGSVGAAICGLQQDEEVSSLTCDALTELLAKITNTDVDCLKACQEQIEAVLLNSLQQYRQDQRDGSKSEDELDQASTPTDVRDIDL
Variant,normalised enrichment score
TLGLGPASFTLED [L7A],-0.00996
TAGLGPLSFTLED [L2A],-0.104
TLGLGPLSFTAED [L11A],-0.103
TLGLGPLSATLED [F9A],-0.0192
TLGLAPLSFTLED [G5A],-0.0229
ALGLGPLSFTLED [T1A],-0.288
TLGLGPLAFTLED [S8A],0.0242

# Block 4
# Target: Histone acetyltransferase KAT6A, both winged helices, GST fusion (KAT6A, Homo sapiens, UniProt Q92794, residues 1-181)
# Method: protein binding microarray
# Molecule type: double-stranded DNA, one strand shown
# Medium: in vitro
# Tested at: not given
# Setting: 8-mer, flanks averaged, mean of 2 arrays, mostly near background
# Baseline: not given
# Direction: higher = stronger binding
# Construct (chain): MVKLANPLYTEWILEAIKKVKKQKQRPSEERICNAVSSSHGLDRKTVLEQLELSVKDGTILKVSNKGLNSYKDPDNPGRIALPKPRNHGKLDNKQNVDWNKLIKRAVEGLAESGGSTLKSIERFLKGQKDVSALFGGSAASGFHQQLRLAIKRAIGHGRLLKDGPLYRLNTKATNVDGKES
Sequence,E-score
AACTAGAC,0.0328
CCAGAGGA,-0.206
AAACCGTC,0.199
GTGGTGCA,-0.0944
AGTCACGC,0.0163
AGTTTCTC,-0.13
CGACCCGA,0.0764
TGAGGTAA,-0.145
AAAACGCG,0.279
CAAATACC,-0.0484
CCAGTGTA,-0.132
CATCCAAC,-0.121
GGTGATTA,0.0232
AGAATTTC,0.0107
AGATTTTA,-0.0265
CAAACCGC,0.178
CGGACCGA,0.153
ATTCTTTC,-0.155
GACTTAGC,-0.07
CAAGGGCA,-0.203
GAGGCCCC,-0.088
ACCTGTCA,-0.111
CTACTGGC,-0.0479
AATCACCA,-0.0426

# Block 5
# Target: RING finger protein unkempt homolog, zinc fingers 1-6, SBP tag (UNK, Homo sapiens, UniProt Q9C0B0, residues 30-357)
# Sequence of UniProt Q9C0B0 (30-357, looked up): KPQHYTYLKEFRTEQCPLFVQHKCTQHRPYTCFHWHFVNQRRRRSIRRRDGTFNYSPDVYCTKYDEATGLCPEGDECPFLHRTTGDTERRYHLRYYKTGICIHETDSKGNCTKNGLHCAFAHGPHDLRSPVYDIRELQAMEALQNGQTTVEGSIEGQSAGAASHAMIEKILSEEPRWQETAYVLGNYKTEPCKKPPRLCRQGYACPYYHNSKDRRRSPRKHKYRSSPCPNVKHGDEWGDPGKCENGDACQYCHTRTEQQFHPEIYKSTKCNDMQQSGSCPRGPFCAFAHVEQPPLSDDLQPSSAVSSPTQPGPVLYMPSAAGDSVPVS
# Method: RNA Bind-n-Seq
# Molecule type: RNA
# Medium: in vitro
# Tested at: 100 nM
# Setting: RNA with constant flanks, vertebrate orthologous sites, ends assumed
# Baseline: input RNA pool
# Direction: higher = stronger binding
# Shared flanks, not repeated: GGGAGUUCUACAGUCCGACGAUC … CAACAGAGGAUUGAGCAUCA
Sequence,bound/input enrichment
AAACUUAUAUUGUGGCAUAUAGGCAACAUGGAAGUAGACCAGCUCUGCUGAUUGGAAAUUUAGAUUUUUUAAUUAUGUACUGGGGACAGGUUUUUGUCGCUUUACAUUGCUUCCUAGUUU,3.35 ratio
UUGUGUAGUUUUGUAUUUUCAUGCAAAAAUCUUACUGUACUUGAAUGUCUUUAUUUUAUUAAAUGUGUUUAAAUUUUUGGUUAUUAUAUCCUAGAAUCGCUGUAAGUAUACAUGUCGCAG,0.536 ratio
GACCUCCUGAACUUCUAGCUUUCAAGCUGUGGCUGUUUUAGAUACUGGUUUUAUUUUCUUUACAAUUUUCCUGCCUUUCUUCCCCUGUUCCCAAGGUUUGACUCAUGGAUCUUAUUCUUC,2.81 ratio
UUCAAGCACAACUGACUGGUUCACAGCAUCCCUUACAUAGUUAUCUAUCAAGUGCAGGUGUGGUUAAUUUUCAGGAAACAAGCAGGCAGUCAUCUUUAUCCUGUAGCCCAAUUGGAGAUU,2.11 ratio
AGCAACUCAAGGAUUGAGGACUGGUUUUACAAAUACACCAAGUAGAUAUGGAACUAAUAAUAGAAUUGGACAACCAAGACCAUGAUAGACUCUAACUUAUUUUUAUAAGGAAUAUUGACU,0.391 ratio
AUCCUCAACUCGCUCUAGCCUGUGACCCUUCAAGACAGGGCCAGGAUUAGUGCGAGGUGCUAGGAAUUGCCGUCUCUCGCGCCAUUGAUCAGGGAGACAGACAUUAAAACAGGAAUGUCA,0.209 ratio
GCAUAUGCCGCUAUCACCAGAAGCAAACUACCACUGUUUUCAUGUCAUUCUGAGCCUUUAGUGUUUCCCCUACCCUUUCCACGACUGUCCAUGGGAUAGUUUUCCUUCUGACACUUGAUU,0.988 ratio
CCGAAAGGCCAAAUUCCCUCCUCCCUUCUACUGCUUCUACCAACUGGAAGCACAGAAAACUAGAAUUUCAUUUAUUUUGUUUUUGAAAUAUAUAUGUUGAUUUCUUGUAACAUCCAAUAG,0.43 ratio
ACGCUUUGAUAUAAAGAUUGAGAUUAAGAGCUGAUGAUUGCAGCCGCAAGCUGCGCCUUCUCUGCCACCUCCCCCAUUUCAAAAACCAACAAAAAAAAUUUAAAAAAAAAUUAAACACAA,0.355 ratio
AUCCCAGUUUGUAUGCACAUUAUUCACAUUCCUAUCUGUUGUGUUUGCAGAAAUGACAUUUUACCCUUUUCUAAGGGUUGCGUUUUGAUUUUCAUAUUAUUUGGUUGCAUGAAGUUGCCC,0.379 ratio
AUUUAAAAUGUGUUUAGUUAUAUUUAAUGAUCUCAUUCCUGAGUUCCUGUUUCACUGAAGUAGCUUCCAUUUCUAUUAUCGUAGUCAUGAGUAAAUAGAAGGUUUGUGCCAGUAGAGACU,0.373 ratio
